Measured values from different studies.
Every numbered part comes from another study and shows a few of its results, in no order. Substitutions count along the parent as printed.

Study 1
Target: Interferon regulatory factor 7, full length, phosphomimetic (IRF7, Homo sapiens, UniProt Q92985, residues 1-503, S101K/S471D/S472D/S475D/S476D/S477D/S483D/S484D/S487D)
Technique: protein-binding microarray
Form: double-stranded DNA, one strand shown
Sample: in vitro
Tested at: 250 nM
Setting: 60-bp whole probe
With: salmon DNA 0.4 mg/ml
Relative to: random background probes
Reading: higher = stronger binding
All sequences stand within: GCCTAGCAC … GTCTTGATTCGCTTGACGCTGCTG
Residues (chain): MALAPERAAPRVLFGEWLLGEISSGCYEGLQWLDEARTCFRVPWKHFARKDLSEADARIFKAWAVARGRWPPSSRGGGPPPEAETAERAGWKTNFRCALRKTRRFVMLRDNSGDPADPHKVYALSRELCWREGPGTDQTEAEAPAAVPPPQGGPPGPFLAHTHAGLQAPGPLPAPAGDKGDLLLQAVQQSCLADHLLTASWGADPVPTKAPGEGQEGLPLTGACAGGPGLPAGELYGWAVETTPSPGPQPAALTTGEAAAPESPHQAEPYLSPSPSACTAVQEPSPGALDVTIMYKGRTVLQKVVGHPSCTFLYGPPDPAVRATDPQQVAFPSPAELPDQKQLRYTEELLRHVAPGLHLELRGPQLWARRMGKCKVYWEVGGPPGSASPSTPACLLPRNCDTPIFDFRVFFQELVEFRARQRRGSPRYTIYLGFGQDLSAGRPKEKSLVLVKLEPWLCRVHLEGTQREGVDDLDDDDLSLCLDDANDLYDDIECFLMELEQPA
Sequence | log fluorescence [z-score]
AGAGCCATCAATATCTGCAAGTGCTAG | -0.615
GTTTTTTTCTATATGCAATGGTGCTAG | 3.04
TTAGATATCGGGTTTCGATTTGTGCTA | 11.3
TATCATTTAATTATATGGCTGTGCTAG | -0.0395
TCAGCTCTGCGGTTCAGACTGTGCTAG | -0.801
TTAGGTCTCGCACTGGGTTAGTGCTAG | 0.484
GACTATTTCGGGTTTCGAGACGTGCTA | 4.92
TTAGGCCTGGGGTTTCGGTTAGTGCTA | 4.37
CTTTGCTCATTTTTCAGGGAGTGCTAG | 0.504
TTAGATTTCAATTTCGATTAGTGCTAG | 2.15
TTAGGTTTCGGTTTCGGTGAGTGCTAG | 14.1
TTAGGTATTGGACTGGGTTAGTGCTAG | -0.282
TTAGATATCGGGTTTCGATAAGTGCTA | 2.71
GACGGACTGGGACTAGGGACGTGCTAG | -0.264
TTAGGTTTGGACACTGGGTTAGTGCTA | -0.352
GACGAACTGAGTCTCGATACGTGCTAG | 0.647
TGGTCTTTCCACTTTCTTTTGTGCTAG | 1.57
TTAGCTTTCGGGTTTCGATTAGTGCTA | 7.38
GACGATTTCAGTTTCGAGATGTGCTAG | 6.07

Study 2
Target: Prothrombin, mature alpha-thrombin (F2, Homo sapiens, UniProt P00734)
Technique: aptamer microarray, sandwich
Form: DNA with 2'F-ANA
Sample: in vitro
Tested at: 200 nM
Setting: whole 15-mer aptamer, many near background
With: Cy3 exosite-II aptamer, 400 nM
Reading: higher = stronger binding
Sequence: GGTTGGTGTGGTTGG
Modification | mean fluorescence intensity
2'F-ANA at 1 2 3 4 6 7 | 172 a.u.
2'F-ANA at 1 2 3 4 6 7 9 10 11 12 13 14 15 | 53.4 a.u.
2'F-ANA at 2 5 6 8 12 15 | 305 a.u.
2'F-ANA at 2 3 4 7 8 15 | 734 a.u.
2'F-ANA at 1 2 3 5 7 8 9 10 11 13 14 15 | 50.8 a.u.
2'F-ANA at 1 2 3 5 7 9 10 11 13 15 | 59.2 a.u.
2'F-ANA at 1 5 6 8 13 15 | 49.4 a.u.
2'F-ANA at 1 4 6 7 8 9 10 14 15 | 51.7 a.u.
2'F-ANA at 1 3 4 8 13 14 | 77.2 a.u.
2'F-ANA at 1 2 4 6 7 9 12 15 | 235 a.u.
2'F-ANA at 2 3 4 7 8 10 11 15 | 234 a.u.
2'F-ANA at 1 3 4 8 10 15 | 63.3 a.u.
2'F-ANA at 3 6 8 13 | 890 a.u.
2'F-ANA at 1 6 7 10 11 13 15 | 51.2 a.u.
2'F-ANA at 1 2 3 11 12 13 | 306 a.u.
2'F-ANA at 1 6 9 11 14 15 | 52.7 a.u.
2'F-ANA at 1 3 7 9 13 14 | 84.6 a.u.
2'F-ANA at 2 5 8 12 13 | 120 a.u.
2'F-ANA at 1 3 4 6 9 10 11 14 15 | 56.7 a.u.
2'F-ANA at 5 6 8 10 12 13 15 | 182 a.u.
2'F-ANA at 9 13 15 | 380 a.u.
2'F-ANA at 1 4 5 6 9 11 12 13 | 67.7 a.u.
2'F-ANA at 4 5 6 9 10 11 13 15 | 47.4 a.u.
2'F-ANA at 1 6 8 9 10 12 14 | 46.8 a.u.

Study 3
Target: CCNB2, cyclin fold, Cln2 fusion (human)
Technique: yeast growth competition, sequencing
Sample: yeast
Setting: weak parent motif
Relative to: not given
Reading: higher = stronger binding
Parent: MASTL docking peptide (human); PMIAKNLMCELDE
Change | normalised enrichment score
L11Y | 0.664
C9E | 0.568
D12G | 0.546
N6T | 0.321
A4S | 0.101
M2H | 0.768
L7F | -0.293
C9W | 0.909
K5W | -0.0735
M8T | -0.109
M8Q | 0.0197
E10R | 0.803
I3D | -0.31
N6V | 0.206
K5Q | -0.129
M8C | 0.089

Further values, each from its own experiment
Substance | target | assay | test system | setting | how to read | measurement | value
PhoQ, residues 284 288 289 292 302 303 SSCCRF | PhoP, residues 12 14 15 18 19 SYFRT (Escherichia coli, UniProt P23836) | Sort-seq, measured: YFP reporter | E. coli | PhoQ-PhoP variant library, with: 10 µM Mg2+ | relative to: high Mg2+ state, higher = stronger signaling | fold induction | 11.4

A few entries again (study 1):
Sequence | log fluorescence [z-score]
GTTTTTTTCTATATGCAATGGTGCTAG | 3.04
CTTTGCTCATTTTTCAGGGAGTGCTAG | 0.504
TTAGATATCGGGTTTCGATAAGTGCTA | 2.71
TCAGCTCTGCGGTTCAGACTGTGCTAG | -0.801
AGAGCCATCAATATCTGCAAGTGCTAG | -0.615
TTAGATTTCAATTTCGATTAGTGCTAG | 2.15
GACTATTTCGGGTTTCGAGACGTGCTA | 4.92
TGGTCTTTCCACTTTCTTTTGTGCTAG | 1.57
TATCATTTAATTATATGGCTGTGCTAG | -0.0395
